# Assay results of several laboratories.
# Lines come from different studies, so protocols differ. Values joined by “and” are separate records of one study, mostly repeats; a detail may differ. ± marks the error that the study gave.
# Sequence of UniProt P38489 (whole entry, looked up): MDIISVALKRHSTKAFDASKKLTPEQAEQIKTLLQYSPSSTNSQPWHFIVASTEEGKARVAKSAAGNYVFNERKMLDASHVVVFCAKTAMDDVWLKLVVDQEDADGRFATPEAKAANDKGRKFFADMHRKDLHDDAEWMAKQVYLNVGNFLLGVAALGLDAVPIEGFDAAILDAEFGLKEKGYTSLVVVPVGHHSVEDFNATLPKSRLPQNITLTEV
# Sequence of UniProt P35414 (whole entry, looked up): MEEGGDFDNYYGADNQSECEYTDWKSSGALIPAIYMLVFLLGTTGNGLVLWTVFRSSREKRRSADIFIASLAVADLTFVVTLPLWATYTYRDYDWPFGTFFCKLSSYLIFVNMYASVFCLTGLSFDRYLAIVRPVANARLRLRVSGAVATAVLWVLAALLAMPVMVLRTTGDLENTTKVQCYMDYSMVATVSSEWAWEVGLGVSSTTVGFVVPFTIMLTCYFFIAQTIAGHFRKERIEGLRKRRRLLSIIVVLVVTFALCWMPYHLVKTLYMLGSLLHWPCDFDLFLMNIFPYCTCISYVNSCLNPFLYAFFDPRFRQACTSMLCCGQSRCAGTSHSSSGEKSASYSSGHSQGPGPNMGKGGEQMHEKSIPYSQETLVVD
# Sequence of UniProt Q9H7Z7 (whole entry, looked up): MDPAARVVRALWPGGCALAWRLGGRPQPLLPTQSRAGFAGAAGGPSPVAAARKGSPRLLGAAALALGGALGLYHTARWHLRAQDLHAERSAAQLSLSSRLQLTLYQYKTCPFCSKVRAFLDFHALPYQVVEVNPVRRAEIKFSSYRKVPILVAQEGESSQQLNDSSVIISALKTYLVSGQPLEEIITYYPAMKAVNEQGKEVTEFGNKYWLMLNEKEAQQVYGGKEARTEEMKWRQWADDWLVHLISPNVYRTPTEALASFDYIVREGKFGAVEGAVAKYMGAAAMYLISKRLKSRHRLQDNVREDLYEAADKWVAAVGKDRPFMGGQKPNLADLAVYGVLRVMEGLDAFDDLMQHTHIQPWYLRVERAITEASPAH
# Sequence of UniProt Q9NWZ3 (whole entry, unmodified, looked up): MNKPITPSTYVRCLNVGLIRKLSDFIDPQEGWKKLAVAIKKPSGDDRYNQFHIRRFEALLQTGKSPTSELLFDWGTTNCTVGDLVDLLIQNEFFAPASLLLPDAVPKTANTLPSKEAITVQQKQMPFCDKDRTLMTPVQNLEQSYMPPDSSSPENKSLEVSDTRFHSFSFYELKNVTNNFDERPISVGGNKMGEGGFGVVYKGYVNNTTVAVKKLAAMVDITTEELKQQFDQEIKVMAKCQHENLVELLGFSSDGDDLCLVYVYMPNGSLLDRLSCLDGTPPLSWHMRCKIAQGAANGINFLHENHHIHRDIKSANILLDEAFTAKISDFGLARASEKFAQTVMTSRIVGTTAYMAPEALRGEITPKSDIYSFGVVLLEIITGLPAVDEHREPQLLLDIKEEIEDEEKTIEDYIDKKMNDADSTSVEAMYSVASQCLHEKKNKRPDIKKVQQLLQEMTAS
# Sequence of UniProt P23284 (whole entry, looked up): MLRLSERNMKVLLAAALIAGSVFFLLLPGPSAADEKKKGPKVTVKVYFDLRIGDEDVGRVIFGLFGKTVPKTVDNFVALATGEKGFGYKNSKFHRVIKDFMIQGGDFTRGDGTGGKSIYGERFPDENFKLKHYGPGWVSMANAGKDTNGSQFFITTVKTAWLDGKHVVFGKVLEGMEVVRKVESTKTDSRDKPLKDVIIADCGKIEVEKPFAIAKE
# Sequence of UniProt Q9HAW8 (whole entry, looked up): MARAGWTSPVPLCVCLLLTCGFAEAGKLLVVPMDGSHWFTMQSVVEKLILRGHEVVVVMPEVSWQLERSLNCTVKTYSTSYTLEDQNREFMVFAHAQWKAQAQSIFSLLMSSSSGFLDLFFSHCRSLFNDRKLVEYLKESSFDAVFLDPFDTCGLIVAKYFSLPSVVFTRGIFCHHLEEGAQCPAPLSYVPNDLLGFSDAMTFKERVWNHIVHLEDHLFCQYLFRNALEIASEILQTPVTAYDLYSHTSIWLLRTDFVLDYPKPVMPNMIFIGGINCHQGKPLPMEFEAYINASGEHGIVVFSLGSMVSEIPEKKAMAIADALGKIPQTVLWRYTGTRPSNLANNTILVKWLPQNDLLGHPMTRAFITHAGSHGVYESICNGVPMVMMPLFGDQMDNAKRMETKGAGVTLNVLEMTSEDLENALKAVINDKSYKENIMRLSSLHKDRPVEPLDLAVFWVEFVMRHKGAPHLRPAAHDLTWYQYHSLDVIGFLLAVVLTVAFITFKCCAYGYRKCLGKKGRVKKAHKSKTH
# Sequence of UniProt P08684 (whole entry, looked up): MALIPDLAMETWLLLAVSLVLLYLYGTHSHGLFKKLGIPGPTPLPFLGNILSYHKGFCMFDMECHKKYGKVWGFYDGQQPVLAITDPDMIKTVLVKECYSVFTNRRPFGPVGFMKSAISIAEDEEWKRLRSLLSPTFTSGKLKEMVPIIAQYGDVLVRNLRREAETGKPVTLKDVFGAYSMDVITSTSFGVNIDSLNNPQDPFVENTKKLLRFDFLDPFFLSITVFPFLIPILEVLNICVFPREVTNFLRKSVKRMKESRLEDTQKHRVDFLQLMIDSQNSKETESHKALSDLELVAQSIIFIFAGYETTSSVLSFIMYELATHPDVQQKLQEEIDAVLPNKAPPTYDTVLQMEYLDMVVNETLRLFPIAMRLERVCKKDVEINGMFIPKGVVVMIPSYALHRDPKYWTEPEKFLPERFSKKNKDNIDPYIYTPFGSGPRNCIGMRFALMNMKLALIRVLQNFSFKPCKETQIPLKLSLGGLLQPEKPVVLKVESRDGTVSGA
SMILES,tested on,assay,system,setting,scale,endpoint,result
O=C(c1ccc(Cl)cc1)N1CCN2C(=O)N(OC(=O)N3CCOc4ccccc43)C(=O)C2C1 (stereo not drawn),"Peptidyl-prolyl cis-trans isomerase B (Homo sapiens, UniProt P23284)",MS-based ABPP,SW-620 conditioned medium,"10 µM, 1 h, 37 °C, median protein ratio",relative to: compound over DMSO,probe labelling ratio,1.45
OC(CCN1CC=C(c2ccc(F)cc2)CC1)c1ccc(F)c2ccccc12 (stereo not drawn),Salmonella typhimurium,SOS/umu test,TA1535/pSK1002,"0.004 mg/mL, 4 h, without S9, full range",,survival,95.2%
O=C(O)c1cn(Cc2ccc(F)cc2)c2ccccc12,"UGT1A10 (Homo sapiens, UniProt Q9HAW8)","substrate, recombinant His-tagged enzyme",,"50 µM, 60 min",,glucuronidation rate,3.3 ± 0.4 nmol/min/mg
CCCC[C@H](NC(C)=O)C(=O)N[C@@H](CO)C(=O)N[C@H](C(=O)N1CCC[C@H]1C(=O)N[C@@H](C)C(=O)N[C@@H](CCCNC(=N)N)C(=O)N[C@@H](CCCNC(=N)N)C(=O)N[C@@H](CCCNC(=N)N)C(=O)N[C@@H](CC(C)C)C(=O)N[C@@H](CCCC)C(=O)N[C@@H](CCCNC(=N)N)C(=O)N[C@@H](CC(=O)O)C(=O)N[C@@H](Cc1ccccc1)C(=O)N[C@@H](CCCCN)C(=O)N[C@@H](CCCNC(=N)N)C(=O)N[C@@H](CC(C)C)C(=O)N[C@@H](CCC(N)=O)C(N)=O)[C@@H](C)O,proteinase K,LC-MS,,"25 µM, 122.9 min, pH 7.4",,remaining peptide,0% and 0.7%
COc1ccc(N2C(=O)N(c3c(C)cccc3Cl)Cc3cnc(Nc4ccc(C5CCN(C)CC5)cc4OC)nc32)nc1,"IRAK4 (Homo sapiens, UniProt Q9NWZ3)",kinase activity,,0.5 µM,,inhibition,5%
CC[C@H](C)[C@@H]1NC(=O)[C@@H]2CCCN2C(=O)[C@H](CC(C)C)NC(=O)[C@H](CC(C)C)NC(=O)CNC(=O)[C@@H](NC(=O)[C@@H](NC(=O)[C@H](CC(=O)O)NC(=O)CNC(=O)[C@@H](NC(=O)[C@H](C)NC(=O)CNC(=O)[C@H](CCCCN)NC(=O)[C@H](CC(C)C)NC(=O)[C@H](CC(C)C)NC(=O)[C@H](CCCCN)NC(=O)CNC(=O)[C@@H](NC(=O)[C@@H](N)CC(C)C)C(C)C)C(C)C)C(C)C)CSSC[C@@H](C(=O)O)NC1=O,,"RNA-seq, item: Slc28a2","mouse, traumatic brain injury model, frontal cortex and hippocampus",dose not given,relative to: TBI alone,log2 fold change,-3.47
COc1ccc(-n2nc(C(C)=O)s/c2=N\N=C(/C)c2ccc(NC(C)=O)cc2)cc1,WI-38,,,"2.5 µM, 24 (unit not given)",,viability,3.18%
CC1(C)C(/C=C(\Cl)C(F)(F)F)C1C(=O)OC(C#N)c1cccc(Oc2ccccc2)c1 (stereo not drawn),human cytosolic CES1,IVIVE from expressed enzymes,"human, 6 months old",,relative to: total hepatic CLint in vivo,relative enzyme contribution,35.1%
Nc1ncnc2c([C@@H]3N[C@H](CO)[C@@H](O)[C@H]3O)c[nH]c12,HeLa,,,6.3 µM,,cell number,5870 and 5980
O=S(=O)(NCCNC/C=C/c1ccc(Br)cc1)c1cccc2cnccc12,PKA,inhibitor,mouse zygotes,"20 µM, injection, hCG, 24 h post, early embryonic development",,dead embryos,0%
CC(C)CC(=O)OC[C@H]1O[C@@](C#N)(c2ccc3c(N)ncnn23)[C@H](O)[C@@H]1O,"ABCB1 (Homo sapiens, UniProt P08183)",,Caco-2,"90 µM, 2 h",,recovery A to B,53.3%
CC[C@H](C)[C@H](NC(=O)[C@H](Cc1ccccc1)NC(=O)[C@H](CCC(=O)O)NC(=O)[C@H](CCCNC(=N)N)NC(=O)[C@H](C)NC(=O)[C@H](C)NC(=O)[C@H](CCC(N)=O)NC(=O)[C@H](CCC(=O)O)NC(=O)[C@H](CCC(=O)O)NC(=O)[C@H](CC(C)C)NC(=O)[C@H](Cc1ccc(O)cc1)NC(=O)[C@H](CO)NC(=O)[C@H](CO)NC(=O)[C@@H](NC(=O)[C@H](CC(=O)O)NC(=O)[C@H](CO)NC(=O)[C@@H](NC(=O)[C@H](Cc1ccccc1)NC(=O)[C@@H](NC(=O)CNC(=O)[C@H](CCC(=O)O)NC(=O)[C@H](C)NC(=O)CCc1c[nH]cn1)[C@@H](C)O)[C@@H](C)O)C(C)C)C(=O)N[C@@H](C)C(=O)N[C@@H](Cc1c[nH]c2ccccc12)C(=O)N[C@@H](CC(C)C)C(=O)N[C@H](C(=O)N[C@@H](CCCNC(=N)N)C(=O)NCC(=O)N[C@@H](CCCNC(=N)N)C(=O)N[C@@H](CCCCNC(=O)COCCOCCNC(=O)COCCOCCNC(=O)CC[C@H](NC(=O)CCCCCCCCCCCCCCCCC(=O)O)C(=O)O)C(=O)NCC(=O)NCC(=O)N[C@@H](CO)C(=O)N[C@@H](CCCCNc1c(NCCCCCN(O)C(=O)CCC(=O)NCCCCCN(O)C(=O)CCC(=O)NCCCCCN(O)C(C)=O)c(=O)c1=O)C(=O)O)C(C)C [zirconium-89 labelled],,ex vivo gamma counting,"rat, stomach","subcutaneous, 3 nmol/kg, 4 h, together with: [89Zr]-labelled peptide",,tissue uptake,0.12 %ID/g
CC(=O)N1CCC(C(=O)N2CCN3C(=O)c4cc(-c5ccccc5)ccc4NC(=O)C3C2)CC1 (stereo not drawn),Salmonella typhimurium,,TA1537,"1.58 µg/plate, together with: rat liver S9",,revertants per plate,29
COc1cccc(-c2n[nH]c(SCc3ccccn3)n2)c1OC,Salmonella typhimurium,"Ames test, plate incorporation",TA100,"2.0 mg/plate, without S9",,revertant colonies per plate,107
COc1cc(Nc2ncc(F)c(Nc3ccc4c(n3)NC(=O)C(C)(C)O4)n2)cc(OC)c1OC,nicotinic acetylcholine receptor,binding,,,,IC50,> 10000 nM
CN(C(=O)n1cnc(-c2ccc[n+]([O-])c2)c1)C1CCCCC1,"Apelin receptor (APLNR, Homo sapiens, UniProt P35414)",radioligand binding,,10 µM,,inhibition,16%
C[C@@H](O)[C@@H](CO)NC(=O)[C@@H](CCCNC(=N)N)NC(=O)[C@@H]1CCCN1C(=O)[C@@H]1CSSC[C@H](NC(=O)[C@H](Cc2ccccc2)NC(=O)CN2CCN(CC(=O)O)CCN(CC(=O)O)CCN(CC(=O)O)CC2)C(=O)N[C@@H](Cc2ccc(O)cc2)C(=O)N[C@@H](Cc2ccccc2)C(=O)N[C@@H](CCC(N)=O)C(=O)N[C@@H](CC(N)=O)C(=O)N1 [gallium-68 labelled],,,"Wistar rat, healthy, Parotid gland","intravenous, 8 MBq, 120 min, mean",,tissue uptake,0.07 %ID/g
O=c1ccc2ccccc2o1,HepG2,item: cell count,,"concentration not given, 24 h, mitochondrial oxidative stress panel",,probability of response,8.41%
[Cl-].[Cl-].[Pt+2].[Ru+2].c1ccc(-c2nc3cc4ccccc4cc3nc2-c2ccccn2)nc1.c1cnc2c(c1)ccc1cccnc12.c1cnc2c(c1)ccc1cccnc12,Danio rerio,,embryos,"75 µM, 72 h",,survival rate,70 ± 2.8%
O=[N+]([O-])c1ccc(N2CCN(CCC(O)c3ccc(F)cc3)CC2)c(C(F)(F)F)c1 (stereo not drawn),Salmonella typhimurium,SOS/umu test,"TA1535/pSK1002, TGA medium","0.000244 mg/mL, 4 h, without S9",,survival,124%
C[C@H]1CN(c2n[nH]c3nc(N[C@H]4CC[C@H](NS(=O)(=O)CCC(F)(F)F)CC4)ncc23)CCO1,"Prostaglandin E synthase 2 (Homo sapiens, UniProt Q9H7Z7)","Kinobeads competition, item: PTGES2",,"0.8 µM, unit not given",relative to: vehicle,remaining binding,1.22
OCc1ncc2n1-c1ccc(Cl)cc1C(c1ccccc1F)=NC2,CYP3A4 (human),,"human, plasma","oral, 2 mg midazolam, together with: encorafenib at steady state",relative to: Day -7 probe alone,Cmax increase,25%
Cc1cc2nc3c(=O)[nH]c(=O)nc-3n(C[C@H](O)[C@H](O)[C@H](O)COP(=O)(O)O)c2cc1C,"nfsB (Escherichia coli K-12, UniProt P38489)","bound cofactor redox, redox titration",,"pH 7.0, 25 °C, anaerobic",,midpoint potential,-199 ± 7 mV
CC1(C)[C@H](C=C(Cl)Cl)[C@H]1C(=O)OCc1cccc(Oc2ccccc2)c1,human microsomal CES2,IVIVE from expressed enzymes,"human, 6 months old, expressed human CES2",0.1 µM,relative to: total hepatic CLint in vivo,relative enzyme contribution,6.1%
Cc1cc(C(=O)NC(C)(C)COc2cccc3c2C(N)=NS(=O)(=O)N3)cc(C)n1,Salmonella typhimurium,"Ames test, initial",TA100,"15.0 µg/plate, together with: rat liver S9",relative to: solvent control,revertant ratio,1.1
CO[C@H]1C[C@@H]2CC[C@@H](C)[C@@](O)(O2)C(=O)C(=O)N2CCCC[C@H]2C(=O)O[C@H]([C@H](C)C[C@@H]2CC[C@@H](OC(=O)NCCOCCOCCOCCOCCOCCOCCOCCOCCC(=O)N3CCc4cc(Cn5nc(-c6ccc7oc(N)nc7c6)c6c(N)ncnc65)ccc4C3)[C@H](OC)C2)C[C@@H](O)[C@H](C)/C=C(\C)[C@@H](O)[C@@H](OC)C(=O)[C@H](C)C[C@H](C)/C=C/C=C/C=C/1C,,,patients with advanced solid tumours,"intravenous, 10 mg weekly, any grade",,headache incidence,12.5%
Cc1ncc2n1-c1ccc(Cl)cc1C(c1ccccc1F)=NC2,"Cytochrome P450 3A4 (CYP3A4, Homo sapiens, UniProt P08684)",,"human, plasma","oral, 2 mg, day 1, alone, geometric mean",,Vd/F,410 L
COc1ccc(CCN(C)CCCC(C#N)(c2ccc(OC)c(OC)c2)C(C)C)cc1OC (stereo not drawn),Plasmodium falciparum,,W2,,,IC50,1000 nM
CN1CC[C@@H](c2c(O)cc(O)c3c(=O)cc(-c4ccc(C(F)(F)F)cc4Cl)oc23)[C@@H]1CO,,item: respiratory failure,B-cell malignancies or AML,"oral, 100 mg, grade 3 to 4, continuous dosing",,patients with adverse event,12.5%
COc1cc2c(Oc3ccc4[nH]c(C)cc4c3F)ccnc2cc1OCC1(N)CC1,,,paediatric recurrent refractory sarcoma,12 mg,,grade 3 Hematochezia,0%
O=C(c1ccc(F)c(F)c1Nc1ccc(I)cc1F)N1CC(O)([C@@H]2CCCCN2)C1,,,human patients,"oral, 1 mg/kg, dose expansion",,treatment-related AE causing dose modification,8%
O=C(O)C[C@H](NC(=O)[C@H](CC(=O)O)NC(=O)[C@H](CC(=O)O)NC(=O)[C@H](CC(=O)O)NC(=O)[C@H](CC(=O)O)NC(=O)[C@H](CC(=O)O)NC(=O)[C@H](CC(=O)O)NC(=O)[C@H](CC(=O)O)NC(=O)[C@H](CC(=O)O)NC(=O)[C@H](CC(=O)O)NC(=O)[C@H](CC(=O)O)NC(=O)[C@H](CCCCNC(=O)c1ccc(C(=O)NCCOCCOB2BBBBBB3BBBB3B2)cc1)NC(=O)CN1CCN(CC(=O)O)CCN(CC(=O)O)CCN(CC(=O)O)CC1)C(=O)O [gallium-67 labelled],,gamma counting,"ddY mouse, male, 6 weeks old, large intestine","intravenous, 37 kBq, 10 min",,tissue uptake,0.51 %ID/g
CC[C@]1(O)C[C@H]2CN(CCc3c([nH]c4ccccc34)[C@@](C(=O)OC)(c3cc4c(cc3OC)N(C=O)[C@H]3[C@@](O)(C(=O)OC)[C@H](OC(C)=O)[C@]5(CC)C=CCN6CC[C@]43[C@@H]65)C2)C1,Plasmodium falciparum,,W2,,,IC50,50.1 nM

# For quick reference, copied from above:
SMILES,tested on,assay,system,setting,scale,endpoint,result
CC1(C)C(/C=C(\Cl)C(F)(F)F)C1C(=O)OC(C#N)c1cccc(Oc2ccccc2)c1 (stereo not drawn),human cytosolic CES1,IVIVE from expressed enzymes,"human, 6 months old",,relative to: total hepatic CLint in vivo,relative enzyme contribution,35.1%
Nc1ncnc2c([C@@H]3N[C@H](CO)[C@@H](O)[C@H]3O)c[nH]c12,HeLa,,,6.3 µM,,cell number,5870 and 5980
O=S(=O)(NCCNC/C=C/c1ccc(Br)cc1)c1cccc2cnccc12,PKA,inhibitor,mouse zygotes,"20 µM, injection, hCG, 24 h post, early embryonic development",,dead embryos,0%
CC(C)CC(=O)OC[C@H]1O[C@@](C#N)(c2ccc3c(N)ncnn23)[C@H](O)[C@@H]1O,"ABCB1 (Homo sapiens, UniProt P08183)",,Caco-2,"90 µM, 2 h",,recovery A to B,53.3%
CC[C@H](C)[C@H](NC(=O)[C@H](Cc1ccccc1)NC(=O)[C@H](CCC(=O)O)NC(=O)[C@H](CCCNC(=N)N)NC(=O)[C@H](C)NC(=O)[C@H](C)NC(=O)[C@H](CCC(N)=O)NC(=O)[C@H](CCC(=O)O)NC(=O)[C@H](CCC(=O)O)NC(=O)[C@H](CC(C)C)NC(=O)[C@H](Cc1ccc(O)cc1)NC(=O)[C@H](CO)NC(=O)[C@H](CO)NC(=O)[C@@H](NC(=O)[C@H](CC(=O)O)NC(=O)[C@H](CO)NC(=O)[C@@H](NC(=O)[C@H](Cc1ccccc1)NC(=O)[C@@H](NC(=O)CNC(=O)[C@H](CCC(=O)O)NC(=O)[C@H](C)NC(=O)CCc1c[nH]cn1)[C@@H](C)O)[C@@H](C)O)C(C)C)C(=O)N[C@@H](C)C(=O)N[C@@H](Cc1c[nH]c2ccccc12)C(=O)N[C@@H](CC(C)C)C(=O)N[C@H](C(=O)N[C@@H](CCCNC(=N)N)C(=O)NCC(=O)N[C@@H](CCCNC(=N)N)C(=O)N[C@@H](CCCCNC(=O)COCCOCCNC(=O)COCCOCCNC(=O)CC[C@H](NC(=O)CCCCCCCCCCCCCCCCC(=O)O)C(=O)O)C(=O)NCC(=O)NCC(=O)N[C@@H](CO)C(=O)N[C@@H](CCCCNc1c(NCCCCCN(O)C(=O)CCC(=O)NCCCCCN(O)C(=O)CCC(=O)NCCCCCN(O)C(C)=O)c(=O)c1=O)C(=O)O)C(C)C [zirconium-89 labelled],,ex vivo gamma counting,"rat, stomach","subcutaneous, 3 nmol/kg, 4 h, together with: [89Zr]-labelled peptide",,tissue uptake,0.12 %ID/g
